Assay results pooled from the literature.
Each numbered part is a random draw from the data of one study; scales do not carry over between parts.

Study 1
Target: Histone acetyltransferase KAT6A, winged helix 2, GST fusion (KAT6A, Homo sapiens, UniProt Q92794, residues 85-181)
Method: protein binding microarray
Form: double-stranded DNA, one strand shown
Sample: in vitro
Concentration: not given
Notes: 8-mer, flanks averaged, mean of 2 arrays, mostly near background
Baseline: not given
Direction: higher = stronger binding
Residues (chain): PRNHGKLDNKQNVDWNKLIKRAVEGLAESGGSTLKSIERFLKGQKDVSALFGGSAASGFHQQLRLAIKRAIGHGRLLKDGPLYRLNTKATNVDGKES
Oligonucleotide | E-score
GGGGGAGA | 0.129
AGAAGTCG | -0.168
ACATGTTG | -0.0437
GTGTCGTA | -0.0172
GACGTAGC | -0.081
AATAGACG | -0.0539
GGTACGAA | 0.105
AAGCGCAA | 0.101
AGTCTGCA | -0.125
CGTAACAC | -0.0239
GAACAGGC | -0.044
ATTGGGAA | -0.054
CGTCTACA | -0.103
TAATAAGA | 0.17
GAAGTCTA | -0.264
CAAACCAC | -0.0216

Study 2
Target: Centromere-binding protein 1, full length, His-tagged (CBF1, Saccharomyces cerevisiae, UniProt P17106, residues 1-351)
UniProt P17106, sequence (whole entry, looked up): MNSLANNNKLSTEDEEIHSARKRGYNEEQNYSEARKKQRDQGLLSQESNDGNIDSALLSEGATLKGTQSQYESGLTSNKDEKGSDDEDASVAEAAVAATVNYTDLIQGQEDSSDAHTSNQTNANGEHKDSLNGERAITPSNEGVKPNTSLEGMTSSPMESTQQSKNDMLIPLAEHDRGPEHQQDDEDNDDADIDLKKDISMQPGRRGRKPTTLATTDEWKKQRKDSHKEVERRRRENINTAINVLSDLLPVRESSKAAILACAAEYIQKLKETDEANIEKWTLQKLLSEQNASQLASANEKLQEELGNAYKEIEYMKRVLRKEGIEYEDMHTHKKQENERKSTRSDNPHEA
Method: competition protein-binding microarray
Form: double-stranded DNA, one strand shown
Sample: in vitro
Concentration: 2 µM
Notes: whole 60-bp probe, lowest competitor level
Added: Pho4 competitor, 0.05 µM
Direction: higher = stronger binding
Shared flanks, not repeated: … GTCTTGATTCGCTTGACGCTGCTG
Oligonucleotide | fluorescence intensity
CTCAGGTCGATGAGTCTCGTGGCCGCAAAGCTGATG | 111 a.u.
GCGGTGAAAAGTGCAAATGTGATGACAGCACCGGAA | 66.3 a.u.
CTTTCCCGATCTTGAAAGGTGGGTGTAGCACATTTG | 62.2 a.u.
AGTAACTACGTAAATCACCTGCTACCTCTCTGTTCT | 169 a.u.
AAATTACTAAGTTCGCACGTGTTTTACCCCGTATGA | 1170 a.u.
TTGGTGTGGGTAAAACACGTGAATAAGAAACTGTAT | 1490 a.u.
CTAACGAAGGTTTGGCACGTGTTTTACAAGCCAAGT | 1800 a.u.
AATTGGGTATTTTACCTCGTGATGGCCTCACAAAAG | 481 a.u.
CTACGCCATCGTTAGCACGCAGAATATTACTTTTTC | 80.9 a.u.
CATACCCAACCTTGTCACGGAACTTAAGATATTTGT | 102 a.u.
AGGATCTAAAACCATCACATGATGTTCTAGTGCGTC | 1020 a.u.
GCAATACTTATTTTTGAAGCCGGATCCCTAATTGCT | 71.5 a.u.
CGAAAGAGAGGTTGCCACGTTTTCCCGACGGCTGCT | 82.9 a.u.
CGGGGTTAAGTTTGTAGAGTGGGTGGCTTGCAGCAG | 61.8 a.u.
CGGCAATTGCTGAGCACCGTGCGATGTTATGATCGC | 77.7 a.u.
AAAGTTTTCAACCTCCACGTGTTCCTTAGTTTCCCT | 921 a.u.
AAGTTCCTACCACAACGCGTGTGAATGATCTTGTAC | 87.5 a.u.
AAATTACTAAGTTATCACGTGTTTTACCCCGTATGA | 4920 a.u.
CATACCCAACCTTGTCACCAAACTTAAGATATTTGT | 90.4 a.u.

Study 3
Target: RNA binding protein fox-1 homolog 2, RRM domain, GST-SBP tag (RBFOX2, Homo sapiens, UniProt O43251-10, residues 100-194)
Method: RNA Bind-n-Seq
Form: RNA
Sample: in vitro
Concentration: 365 nM
Notes: natural RNA segment, single round, ends assumed
Baseline: no-protein control
Direction: higher = stronger binding
Shared flanks, not repeated: GGGAGUUCUACAGUCCGACGAUC … UGGAAUUCUCGGGUGCCAA
Construct (chain): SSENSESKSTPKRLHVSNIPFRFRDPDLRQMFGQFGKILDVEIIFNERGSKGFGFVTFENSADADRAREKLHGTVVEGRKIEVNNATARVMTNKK
Oligonucleotide | RBNS enrichment (R)
AAUAAGUAAUUUAUUGUAAGACAACAUCAAGCCAUGGAAACUUGGCAGAAGAUUCAAAGCAGCUUAAACAGCACUUUUAAAUUAACUCCUAAGCGUUACAUGGUUGUGAC | 0.233
UGUGGACCCAGUCUAGGCACCCCAGUACUUCCCUUCACCUUGUAGAAAAUGGUAAUGAAAGGGCAUGCCCAGGCUCUUUAGCAGCCCAGGGAAACAGAGAAGUCUCCCUU | 0.265
CACGCCCCAGCCACUUUGCUCCCUCUCACCUCUGGGAAGUGCAAAUACUCUUGGUUGACAUCCCCUUCCUCAGCCCUCCCAGCCUACUCCCCAUCCCAGCUUUUAGAGGA | 0.564
CAGAGUCUGUGGGGAGGAUGGUGGGUGGGCAGCCAGCCCUGUUGCUAUGUUGCUUCUUCCACACCCCCUCAAGACAGGUGCAUAGGUGGCACUGGGAACAUCCUACGCAG | 0.419
UGAUCAUAUAUGCAUACGUUUCUUUACAGCAGAGGAAACCAUUGUCCACAAAACUGAUGUUCUUUUGGGGUUUUAUGUACAGACUUGUCCAAUCAUGUGUGUGGUUCCUG | 0.444
GCUGAGAGGAAGCAAGACGUAAAGAAUUUUCAUCCCGUAUCACAGUGUUUUUAUUGCUCGCCCAGACACCAUGUGCAAUAAGAUUGGUGUUCGUUUCCAUCAUGUCUGUA | 8.05
AAUUGGUUUAAAAUACUAUUUGCAGUGAGACCAUCUUUAGACUUGGAUAUUCUUGAUUCUUAGUUCAAAAAAGUUAUUUUGUCAAUAAAACAUGCUUAAAGGAGUAACUA | 0.39
CUCAGAUGUGUAGACAUCCUCCGUAUAUUUACAUAACAUAUAGAGGUAAUAGAUAGGUGAUAUACAUGAUACAUUCUCAAGAGUUGCUUGACCGAAAGUUACAAGGACCC | 0.521

Study 4
Target: Hepatocyte nuclear factor 3-alpha (Foxa1, Mus musculus, UniProt P35582, residues 1-468, full length assumed)
UniProt P35582, sequence (whole entry, looked up): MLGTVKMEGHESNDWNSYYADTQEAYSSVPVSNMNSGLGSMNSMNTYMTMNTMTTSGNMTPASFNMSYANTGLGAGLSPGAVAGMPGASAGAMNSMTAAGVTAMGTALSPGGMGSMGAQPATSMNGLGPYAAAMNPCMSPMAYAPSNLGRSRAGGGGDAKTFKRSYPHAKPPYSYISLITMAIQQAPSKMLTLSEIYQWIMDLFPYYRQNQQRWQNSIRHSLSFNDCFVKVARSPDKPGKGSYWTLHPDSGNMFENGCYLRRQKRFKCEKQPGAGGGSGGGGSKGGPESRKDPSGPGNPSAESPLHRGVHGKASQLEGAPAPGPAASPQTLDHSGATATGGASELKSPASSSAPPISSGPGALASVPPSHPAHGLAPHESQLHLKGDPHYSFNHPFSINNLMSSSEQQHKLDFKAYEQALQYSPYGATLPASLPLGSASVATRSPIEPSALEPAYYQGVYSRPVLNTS
Method: EMSA with sequencing
Form: double-stranded DNA, one strand shown
Sample: in vitro
Concentration: 10 and 20 nM
Notes: whole designed probe, mean of two concentrations, ends assumed
Baseline: negative control set to 0
Direction: higher = stronger binding
Shared flanks, not repeated: GTGAGCGGTGCCCATTGATGGGGAAC … TTTCACTGGGATCGTGGGGAC
Oligonucleotide | normalised bound fraction
AGGTTAAAGATTACATTCTAACCACACACCAGTCATACTCTGCTCCGGGAAAAACCTTAAGTACTTGTGACCTTCTGTCCCTAACTTAGATGTAGATTACTTTCAGTTTACATACAGTGCAATCTCCAGGGTGTACATGATTTTCAAGTCAAAAAAGATAAGGACTAATCCAGAAAGGAGAAGGAATTCTGTT | -0.00581 ratio
TTTTTGTTAACACTTAGATATGCCTTCCCTTCTCAAGGAGGATTATCCTATAAACTTAACCTTTGAATTAAAGATATTTATTGACTAACAATGTAAACAGGAAAAACTTTAAAATCTCAACAGAAATTATTTTCTCTTTAAATACTTTATTACTTTTTATTTTACAGCAACTCACATTTATGGCTTAATATGG | 0.288 ratio
GCAAAACTCCTACTGTTGATGGCTGAATCCTATCAGGAAATTTTGATTTTACTGAGACAAAGTGCCTGCTACAAAGGACTCAGAAGTCTACTAAGTAATCTGGAAACTGGGACAGAATTCAGTCAAGAACTTAGACAGCTCATTGGCCTTTTAAGCCCAACGGTCTATCAGGAAGTAGAAAAGCAGAAACTAC | -0.0757 ratio
AAATGGAAATCATAATGCAGATACAGAATTTTAAAGTTGGTTATCTCCTGCTACCTCAAGTATTATTTTAGGATTAGTAAGGGAAATTACCTAAGTAAACATAGATGAATTATTCACATATAAATCTGAGATTCACTCATATATAATAATCTAATTTTTTACTAGACTTGGTGATCATAAGAAATATTATAAG | 0.458 ratio
ATCCACGAACCTGGCCCTGTCTGGTAACCACAGTGAACCATCGCAAGATACAGCACTATGTGCCCAGTTGGGCTTAATGACTCACGGAACCAGTGTTGACACATCACATCCTCAGGGACACGGAAGTGTACTTGTTTTTGGAGAGGGACTAGACCTTCATCCTTGAGGTGAAGAAGATTTTCTCTCCAGGGTG | 0.105 ratio

For quick reference, copied from above (study 1):
Oligonucleotide | E-score
GAACAGGC | -0.044
ATTGGGAA | -0.054
CGTCTACA | -0.103
